Published values from different studies.
Lines come from different studies, so protocols differ. Several values in a cell are separate wells, animals, samples, runs or records. ± gives the spread as reported.

For `Nc1nc2c(nc(Br)n2[C@@H]2O[C@@H]3COP(=O)(O)O[C@H]3[C@H]2O)c(=O)[nH]1`, “time constant of current decay” read 32.7 ± 7.6 s (cone CNG channel; Morone saxatilis, cone outer segment; 15 µM in electrode, -35 mV).
Under “log2 fold change”, `N#Cc1ccc2c(-c3ccncc3)c(-c3ccc(F)cc3)nn2c1` is recorded as 0.102 (orf19.4575 kinase Candida albicans; MIB/MS competition binding; Candida albicans cell lysate; 100 nM; baseline: DMSO, lower = stronger binding).
`Oc1ccccc1-c1n[nH]cc1-c1ccnc2ccccc12` — result for “log2 fold change”: 0.11 (IKS1 (Candida albicans); kinase binding, MIB/MS competition; Candida albicans lysate; 1 µM; baseline: DMSO).
For `COc1cc(C(=O)Nc2cc(OC)c3ccccc3n2)nc(C(=O)Nc2cc(OC)c3ccccc3n2)c1`, the ΔTm was 1.1 ± 0.5 K (c-kit2 G-quadruplex DNA; FRET melting; 1 µM, pH 7.4, together with: 60 mM potassium).
For `Cn1cc(-c2ccc(-c3cncc(Cl)c3N3CCC4(CCNC4=O)CC3)cc2)cn1`, “log2 fold change” read 1.15 (COLO 205; gene expression, microarray, measured: STC1 mRNA; concentration not given, 2 h; baseline: untreated cells).
For `Cc1cnn2ncc(-c3ccnc(N(C)C)n3)c2c1`, the remaining binding was 100% and 87% and 95% and 83% (human kinase panel; KINOMEscan; concentration not given; baseline: control).
`CC(=O)N[C@H](C(=O)N1C[C@H](O)C[C@H]1C(=O)NCc1ccc(-c2scnc2C)cc1)C(C)(C)SCCCCCCNC(=O)C[C@@H]1N=C(c2ccc(Cl)cc2)c2c(sc(C)c2C)-n2c(C)nnc21`: “relative protein abundance” 0.939 (human DYNC1H1; TMT proteomics; HeLa; 3 µM, 24 h; baseline: DMSO).
`N#Cc1ccn2c(-c3ccncc3)c(-c3ccc(F)cc3)nc2c1`: “log2 fold change” -0.0811 (orf19.4575 kinase Candida albicans; MIB/MS competition binding; Candida albicans cell lysate; 100 nM; baseline: DMSO, lower = stronger binding).
The inhibition of `Cl.OCCNc1nc(Nc2ccccc2)nc2ccccc12` is reported as 77.8% (Trypanosoma cruzi ribosome; translation, measured: Renilla luciferase; Trypanosoma cruzi extract; 40 µM).
With `Cn1cc2c(C(=O)O)ccc(NS(=O)(=O)c3ccc(OCC4CCC4)c(Cl)c3)c2n1` the IC50 was > 100 µM (Cav1 calcium channel; antagonist).
The IC90 of `O=C1Nc2ccc(Cl)cc2[C@@](C#CC2CC2)(C(F)(F)F)O1` is reported as 0.00324 µM (HIV-1; viral replication; human immunodeficiency virus 1).
Under “log2 fold change”, `c1coc(-c2n[nH]cc2-c2ccnc3ccccc23)c1` is recorded as 0.2 (KIN28 (Candida albicans); kinase binding, MIB/MS competition; Candida albicans lysate; 1 µM; baseline: DMSO).
The ΔTm of `NCCOc1cc(C(=O)Nc2cc(OCCN3CCCC3)c3ccccc3n2)nc(C(=O)Nc2cc(OCCN3CCCC3)c3ccccc3n2)c1` is reported as 16 ± 0.5 K (c-kit2 G-quadruplex DNA; FRET melting; 1 µM, pH 7.4, together with: 60 mM potassium).
With `CNC(=O)c1ccccc1Nc1cc(Nc2ccc(N3CCOCC3)cc2OC)ncc1C(F)(F)F` the remaining binding was < 10% (RSK3; KINOMEscan; 1 µM; baseline: control).
For `CCN1CCN(Cc2ccc(C(=O)Nc3cccc(CCc4cnc5[nH]ccc5c4OC)c3)cc2C(F)(F)F)CC1`, the inhibition was > 80% (ABL/ARG kinases (human); KiNativ profiling; Huh-7 cell lysate; 1.0 µM).
For `CC(C)C[C@H](NC(=O)C[C@H](O)[C@H](CC(C)C)NC(=O)[C@H](Cc1c[nH]cn1)NC(=O)CNC(=O)[C@@H](NC(=O)[C@H](C)NC(=O)[C@H](Cc1c[nH]c2ccccc12)NC(=O)[C@H](CCC(N)=O)NC(=O)[C@@H](Cc1ccccc1)NC(=O)COCCOCCNC(=O)CCC(C(=O)O)N1CCN(CC(=O)O)CCN(CC(=O)O)CCN(CC(=O)O)CC1)C(C)C)C(N)=O` (stereo partly shown) [lutetium-177 labelled], the tissue uptake was 3.2 ± 0.9 %ID/g (female BALB/c nu/nu mice, kidneys; intravenous, 100 pmol, 4 h, together with: PA 300 µg).
`CCCCCC(O)C(CC=O)SC[C@H](NC(C)=O)C(=O)O` (stereo partly shown) gave a kcat of 0.004 s⁻¹ (porcine kidney aminoacylase 1; substrate; without Co2+).
With `CN(C)CCCNc1cc2c(=O)n(CCCN(C)C)c(=O)c3c4[nH]c5ccccc5[nH]c4c4c(=O)n(CCCN(C)C)c(=O)c1c4c23` the ΔTm was 0.5 ± 0.1 °C (double-stranded DNA; FRET melting; 0.25 µM, K+ 100 mM).
For `C[C@@H]1CCN(c2nccc(-c3cnn4ncccc34)n2)C1`, the remaining binding was 100% and 85% and 67% and 76% (human kinase panel; KINOMEscan; concentration not given; baseline: control).
`CCN1CCN(Cc2ccc(NC(=O)c3cccc(Oc4ccnc5[nH]ccc45)c3)cc2C(F)(F)F)CC1` has an inhibition of > 96% (ABL/ARG kinases (human); kinase probe binding, inhibitor, KiNativ; Huh-7 cell lysate; 1.0 µM).
With `COc1cc(C(=O)Nc2cc(OCCN3CCCC3)c3ccccc3n2)nc(C(=O)Nc2cc(OCCN3CCCC3)c3ccccc3n2)c1` the delta Tm was 1 ± 0.3 K (double-stranded DNA; FRET melting; 1 µM, pH 7.4, 60 mM potassium, together with: oligonucleotide 200 nM).
The ΔTm of `CN(C)CCCn1c(=O)c2cc(Br)c3c(=O)n(CCCN(C)C)c(=O)c4c5[nH]c6ccccc6[nH]c5c(c1=O)c2c34` is reported as 1.6 ± 0.4 °C (double-stranded DNA; FRET melting; 0.25 µM, K+ 100 mM).
Under “log2 fold change”, `Cc1n[nH]c2ccc(-c3cc(OC[C@@H](N)Cc4ccccc4)cnc3-c3ccoc3)cc12` is recorded as -0.428 (orf19.4575 kinase Candida albicans; MIB/MS competition binding; Candida albicans cell lysate; 100 nM; baseline: DMSO, lower = stronger binding).
The IC90 of `Cc1cc(C#N)cc(C)c1Oc1nc(Nc2ccc(C#N)cc2)nc(N)c1Br` is reported as 0.00607 µM (HIV-1; viral replication; human immunodeficiency virus 1).
With `NCCOc1cc(NC(=O)c2cc(OCc3c[nH]nn3)cc(C(=O)Nc3cc(OCCN)c4ccccc4n3)n2)nc2ccccc12` the ΔTm was 7.2 ± 0.6 K (c-kit2 G-quadruplex DNA; FRET melting; 1 µM, pH 7.4, together with: 60 mM potassium).
For `C[C@H](CCC(C)(C)O)[C@H]1CC[C@H]2[C@@H]3CC=C4C[C@@H](O)CC[C@]4(C)[C@H]3CC[C@]12C`, the EC50 was 0.0628 µM (NMDA receptor rat; NMDA current potentiation, potentiator, whole-cell recording; rat cultured hippocampal neurons; together with: NMDA 10 µM).
With `C#Cc1cc(-c2cc(Nc3nc(N[C@@H](C)c4ccc(F)cn4)ncc3Cl)n[nH]2)ccc1C=O` the inhibition was 80.3% and 78.7% (NCOA4-RET kinase fusion, human; kinase activity, inhibitor; 0.2 µM).
Under “cells with nuclear reporter”, `CC(Nc1nc(N2CCCC2)nc2ccccc12)c1ccccc1` (stereo not shown) is recorded as 84.3% and 98.6% (importin α/β1; cMyc nuclear import, high content imaging; HeLa Kyoto reporter; 1 µM, 2 h).
With `CC(C)c1nc(CN(C)C(=O)N[C@H](C(=O)N[C@@H](Cc2ccccc2)C[C@H](O)[C@H](Cc2ccccc2)NC(=O)OCc2cncs2)C(C)C)cs1` the IC90 was 0.0767 µM (HIV-1; viral replication; human immunodeficiency virus 1).
With `O=C(Nc1cc(OCCN2CCCC2)c2ccccc2n1)c1cc(OCCN2CCCC2)cc(C(=O)Nc2cc(OCCN3CCCC3)c3ccccc3n2)n1` the delta Tm was 0.9 ± 0.2 K (double-stranded DNA; FRET melting; 1 µM, pH 7.4, 60 mM potassium, together with: oligonucleotide 200 nM).
The remaining activity of `Cc1ccc(C(=O)NCc2ccsc2)cc1C#Cc1cn(C(C)C)c2ncnc(N)c12` is reported as 99% (myosin light chain kinase (human); enzyme activity; 1 µM, together with: ATP at Km).
The delta Tm of `NCCCOc1cc(NC(=O)c2cc(OCc3c[nH]nn3)cc(C(=O)Nc3cc(OCCCN)c4ccccc4n3)n2)nc2ccccc12` is reported as 0 ± 0.1 K (double-stranded DNA; FRET melting; 1 µM, pH 7.4, 60 mM potassium, together with: oligonucleotide 200 nM).
`c1ccc(-c2n[nH]cc2-c2ccnc3ccccc23)nc1`: “log2 fold change” 1.35 (orf19.4575 kinase Candida albicans; MIB/MS competition binding; Candida albicans cell lysate; 100 nM; baseline: DMSO, lower = stronger binding).
The ΔTm of `NCCOc1cc(C(=O)Nc2cc(OCCN)c3ccccc3n2)nc(C(=O)Nc2cc(OCCN)c3ccccc3n2)c1` is reported as 22.3 ± 0.7 K (c-kit2 G-quadruplex DNA; FRET melting; 1 µM, pH 7.4, together with: 60 mM potassium).
The kcat of `COC1=C(OC)C(=O)C(CC=C(C)C)=C(C)C1=O` is reported as 0.52 ± 0.03 s⁻¹ (FSP1 F15A mutant; substrate; together with: 100 µM co-substrate).
The ΔTm of `NCCOc1cc(NC(=O)c2cc(OCc3ccc(F)cc3)cc(C(=O)Nc3cc(OCCN)c4ccccc4n3)n2)nc2ccccc12` is reported as 9.4 ± 0.3 K (c-kit2 G-quadruplex DNA; FRET melting; 1 µM, pH 7.4, together with: 60 mM potassium).
`COc1cc(Nc2ncc3c(n2)-c2ccc(Cl)cc2C(c2c(F)cccc2OC)=NC3)ccc1C(=O)NCCOCCOCCNC(=O)COc1cccc2c1C(=O)N(C1CCC(=O)NC1=O)C2=O` (stereo not shown) gave an EC50 of > 30 µM (human CSNK2A1/CSNK2A3; binding, kinobead competition; MV4-11 cell lysate).

Some of these lines once more:
For `C[C@H](CCC(C)(C)O)[C@H]1CC[C@H]2[C@@H]3CC=C4C[C@@H](O)CC[C@]4(C)[C@H]3CC[C@]12C`, the EC50 was 0.0628 µM (NMDA receptor rat; NMDA current potentiation, potentiator, whole-cell recording; rat cultured hippocampal neurons; together with: NMDA 10 µM).
For `C[C@@H]1CCN(c2nccc(-c3cnn4ncccc34)n2)C1`, the remaining binding was 100% and 85% and 67% and 76% (human kinase panel; KINOMEscan; concentration not given; baseline: control).
With `C#Cc1cc(-c2cc(Nc3nc(N[C@@H](C)c4ccc(F)cn4)ncc3Cl)n[nH]2)ccc1C=O` the inhibition was 80.3% and 78.7% (NCOA4-RET kinase fusion, human; kinase activity, inhibitor; 0.2 µM).
`Oc1ccccc1-c1n[nH]cc1-c1ccnc2ccccc12` — result for “log2 fold change”: 0.11 (IKS1 (Candida albicans); kinase binding, MIB/MS competition; Candida albicans lysate; 1 µM; baseline: DMSO).
The ΔTm of `CN(C)CCCn1c(=O)c2cc(Br)c3c(=O)n(CCCN(C)C)c(=O)c4c5[nH]c6ccccc6[nH]c5c(c1=O)c2c34` is reported as 1.6 ± 0.4 °C (double-stranded DNA; FRET melting; 0.25 µM, K+ 100 mM).
The ΔTm of `NCCOc1cc(C(=O)Nc2cc(OCCN3CCCC3)c3ccccc3n2)nc(C(=O)Nc2cc(OCCN3CCCC3)c3ccccc3n2)c1` is reported as 16 ± 0.5 K (c-kit2 G-quadruplex DNA; FRET melting; 1 µM, pH 7.4, together with: 60 mM potassium).
